Published values of several laboratories.
Protocols differ between the studies behind these lines. Values joined by “and” are separate records of one study, mostly repeats; a detail may differ. ± marks the error that the study gave.

| SMILES | target | assay | test system | conditions | scale | quantity | result |
| --- | --- | --- | --- | --- | --- | --- | --- |
| Nc1ncc(-c2cc(-c3cnn(CC(F)(F)F)c3)ncc2F)nc1C(=O)NC1CNCC(F)C1 (stereo not shown) | ZAP70 | KINOMEscan |  | 1 µM | relative to: DMSO control | remaining binding | 74% |
| C[n+]1ccc(/C=N/NC(=O)c2cccc(C(=O)N/N=C/c3cc[n+](C)c4ccccc34)c2)c2ccccc21 | 22CTA telomeric G4-DNA antiparallel | FRET melting |  | 1 µM, K10 buffer, DNA 0.2 µM |  | ΔTm | 8.3 ± 0.5 °C |
| Cn1ccc2cc(-n3c(=O)[nH]c4sc5c(c4c3=O)CCCC5)ccc21 | rat kainate receptor | radioligand binding |  | 10 µM |  | inhibition | 4% |
| O=c1c(Oc2ccccc2)c(C(F)(F)F)oc2c(O)c(O)ccc12 | ROC1-CUL1 E3 subcomplex | di-ubiquitin synthesis |  | 3 µM | relative to: input | di-ubiquitin formed | 61% |
| CC(C)Oc1cc(Cl)ccc1CNc1cc(-c2ccccc2)nc2ncnn12 | endogenous β-adrenergic receptors | cAMP level, cAMP GloSensor | mock-transfected cells | 10 nM, with: isoprenaline 30 nM | higher = more cAMP | cAMP luminescence | 22200 a.u. and 25000 a.u. and 27400 a.u. |
| OC[C@H]1O[C@@H]2O[C@H]3[C@H](O)[C@@H](O)[C@@H](O[C@H]4[C@H](O)[C@@H](O)[C@@H](O[C@H]5[C@H](O)[C@@H](O)[C@@H](O[C@H]6[C@H](O)[C@@H](O)[C@@H](O[C@H]7[C@H](O)[C@@H](O)[C@@H](O[C@H]1[C@H](O)[C@H]2O)O[C@@H]7CO)O[C@@H]6CO)O[C@@H]5CO)O[C@@H]4CO)O[C@@H]3CO | LuxR | Escherichia coli sensor |  | 10 µM | higher = stronger induction | bioluminescence induction | 771 ± 69 RLU |
| C=CC(=O)N1[C@@H](c2ccc3c(c2)OCO3)c2[nH]c3ccccc3c2C[C@H]1C(=O)NC1CC1 | PTGES2 Cys113 human | cysteine IA-DTB labelling, covalent inhibitor, MS-ABPP | 22Rv1 | 20 µM, 3 h |  | inhibition | 87% |
| C[n+]1cc(/C=N/NC(=O)c2ccc3ccc(C(=O)N/N=C/c4cc5ccccc5[n+](C)c4)nc3n2)cc2ccccc21 | 22CTA telomeric G4-DNA antiparallel | FRET melting |  | 1 µM, K10 buffer, DNA 0.2 µM |  | ΔTm | 12.5 ± 0.3 °C |
| c1ccc(-c2n[nH]cc2-c2ccnc3ccccc23)nc1 | STE11 (Candida albicans) | kinase binding, MIB/MS competition | Candida albicans lysate | 10 µM | relative to: DMSO | log2 fold change | -0.28 |
| c1ccc(CSc2nc3ccccc3cc2CNCCC2CCN(C3CCCC3)CC2)cc1 | electron transport chain | proton pumping, ACMA quenching | Pseudomonas aeruginosa inverted membrane vesicles | 32 µg/mL, with: NADH |  | inhibition | 77% |
| CC[n+]1cccc2cc(/C=N/NC(=O)C(=O)N/N=C/c3ccc4c(ccc[n+]4CC)c3)ccc21 | 22CTA telomeric G4-DNA antiparallel | FRET melting |  | 1 µM, K10 buffer, DNA 0.2 µM, with: ds26 10 µM |  | ΔTm | 2.9 ± 0.5 °C |
| C=CC(=O)N1[C@@H](c2ccc3c(c2)OCO3)c2[nH]c3ccccc3c2C[C@H]1C(=O)N1CCN(C)CC1 | human cyclin E1 wild type-3xFLAG:CDK2 | co-IP with TMT proteomics, item: SNRNP200 |  | concentration not given, O75643 | relative to: wild type DMSO | relative co-enrichment | 95% |
| O=C(N/N=C/c1ccc(C[n+]2ccccc2)cc1)N/N=C/c1ccc(C[n+]2ccccc2)cc1 | 22CTA telomeric G4-DNA antiparallel | FRET melting |  | 1 µM, K10 buffer, DNA 0.2 µM, with: ds26 10 µM |  | ΔTm | 3.6 ± 0.1 °C |
| C=CC(=O)N1Cc2nc(-c3cc(-c4cc(Cl)cnc4Cl)c(F)cc3F)n(-c3ccncn3)c2C1 | ERK (human) | ERK phosphorylation, inhibitor, HTRF |  | 2 h |  | IC50 | 32 nM |
| O=C(N/N=C/c1ccc(C[n+]2ccccc2)cc1)c1cc(C(=O)N/N=C/c2ccc(C[n+]3ccccc3)cc2)ncn1 | 22CTA telomeric G4-DNA antiparallel | FRET melting |  | 1 µM, K10 buffer, DNA 0.2 µM |  | ΔTm | 2.6 ± 0.6 °C |
| C=CC(=O)Nc1cccc(Cn2ncc3cnc(Nc4cnn(CCOC)c4)nc32)c1 | SYK human | binding, KINOMEscan |  | 100 nM | lower = stronger binding | percent of control | 100% |

A few entries again:
| SMILES | target | assay | test system | conditions | scale | quantity | result |
| --- | --- | --- | --- | --- | --- | --- | --- |
| C[n+]1cc(/C=N/NC(=O)c2ccc3ccc(C(=O)N/N=C/c4cc5ccccc5[n+](C)c4)nc3n2)cc2ccccc21 | 22CTA telomeric G4-DNA antiparallel | FRET melting |  | 1 µM, K10 buffer, DNA 0.2 µM |  | ΔTm | 12.5 ± 0.3 °C |
| c1ccc(-c2n[nH]cc2-c2ccnc3ccccc23)nc1 | STE11 (Candida albicans) | kinase binding, MIB/MS competition | Candida albicans lysate | 10 µM | relative to: DMSO | log2 fold change | -0.28 |
